Published values of several laboratories.
Numbered parts are unrelated; each lists some results of a single study.

Sample 1
Target: RING finger protein unkempt homolog, zinc fingers 1-6, GST-SBP tag (UNK, Homo sapiens, UniProt Q9C0B0, residues 30-357)
Sequence of UniProt Q9C0B0 (30-357, looked up): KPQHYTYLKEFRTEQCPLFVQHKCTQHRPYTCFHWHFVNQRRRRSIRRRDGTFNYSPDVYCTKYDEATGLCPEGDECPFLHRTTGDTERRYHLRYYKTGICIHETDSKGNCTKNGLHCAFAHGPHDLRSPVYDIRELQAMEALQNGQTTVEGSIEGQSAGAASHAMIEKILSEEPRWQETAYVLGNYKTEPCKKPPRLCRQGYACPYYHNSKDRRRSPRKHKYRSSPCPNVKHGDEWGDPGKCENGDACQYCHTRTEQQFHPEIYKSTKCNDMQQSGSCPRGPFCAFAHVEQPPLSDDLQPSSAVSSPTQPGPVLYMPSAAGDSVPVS
Method: RNA Bind-n-Seq
Form: RNA
Medium: in vitro
Tested at: not given
Setting: RNA with constant flanks, human and mouse sites, ends assumed
Relative to: input RNA pool
Reading: higher = stronger binding
Quantity: bound/input enrichment
All sequences stand within: GGGAGUUCUACAGUCCGACGAUC … CAACAGAGGAUUGAGCAUCA
GUUGUAAAUCAGACUCCAGCAAUUUUUGUUGUAUGAUUUUGUUUUUUUGUAAAGUGUAAUUGUCCUUGUACAAAAUGCUCAUAUUUAAUUAUGAACUGCUUUAAAUCACUAUCAAAGUUA: 0.218 ratio
AGACAAUGUGCUGAAGACCUGCUACAGUUCUCUGCCAAUAUUCCUGCUCUUUACAAUAGUAAACAGCUUGAAGACUUUUUCAAGGGUGGAAUAAUUAAUGAUAGUUCUGAAUUAAUUGGU: 0.525 ratio
UCAUUUUUCUCUUUUCUUUCUUUCCUUUAGGAAAAGCCUAAAGAUUAGGUUGUAAGAAAAACAGAAGCCAUGUUUCGAAGACCUGUGUUACAGGUAUUUCGUCAGUUUGUAAGACAUGAG: 0.184 ratio
AGCACAUCGUCGUUUUGGGGGAAGUCUACAACUACUCCUGUGAACCAGAUCCAAGAAACAAUUUCUAACAAUUGUGUGGUGAUCUUCUCAAAAACAUCCUGCUCUUACUGUUCCAUGGCC: 0.13 ratio
UUCUACAGUAUUCCUGAAUUUGACGAAUGGAAAAAACAUAUAGAAAACCAGAAAGCCUGGAAAAUAAAGUACUAUAAAGGAUUGGGUACUAGUACAGCUAAAGAAGCAAAGGAAUAUUUU: 1.26 ratio
AAAUUCUACAAACAAGUUAUUGAUAAAGGCCAAACAAUUCCAGAGGAUAUCUUAGGAAAGAUAGCAGUUUCUAUUGUAAAAGCGUUAGAACAUUUACACAGUAAGCUGUCUGUUAUCCAU: 0.306 ratio
CAGAAAUAUUGGUCAAAUUUAUUGACGUUGGCGGCUACAAACUUCUUAACAAUUGGCUGACGUAUUCAAAGACAACCAACAACAUUCCCCUCCUCCAGCAAAUUCUACUGACCCUGCAGC: 0.623 ratio
CUGGCUGGAGUGUAGGCUGUACCCCAUUUCCUUGGCUCCCAUUAAAAAUCAACAACAUUCUAAUGAUUAGGGAACAACAGAAGGGGAACAGUCAUAGGAUAUACGAGCAGUAUAAAGAUA: 0.435 ratio
UCUAGUGGCUUCGGUGGCAAAUACGGUGUGCAAGCUGACCGUGUAGACAAGAGUGCCGUGGGCUUUGACUACCAGGGCAAGACGGAGAAGCAUGAGUCUCAGAAAGAUUACUCCAAAGGU: 0.197 ratio
CCGAUCUUCACUUCUAGCAGGUUUUUUAAACGUGACCCUUGGCUGUAUUUCCCAUCUUCACAGUUCAAGCACCCCAAACCUGCCCUUUCUCCCCUGCAGACUGGCAGGUGGGAUUGGCUC: 0.138 ratio
AUAGAACCAAGUAGCAAUAAAGAUGAUGAUUUUCUUGAAAAAAAUGGAGCUGAUGAAAAAUUAGAGCAAAUUCAGAGUAAAGACUCAUUGGAUGAGAAAAAUAAAGCUGAUAAUAAUAUU: 9.01 ratio

Sample 2
Target: Fragile X messenger ribonucleoprotein 1, C-terminal low-complexity region (Fmr1, Mus musculus, UniProt P35922)
Method: RNA Bind-n-Seq
Form: RNA
Medium: in vitro
Tested at: 200 nM
Setting: whole 134-nt RNA, ends assumed
Together with: 150 mM LiCl
Relative to: input library
Reading: higher = stronger binding
Quantity: log2 enrichment
All molecules: 7-deaza-guanosine replaces G
All sequences stand within: GGGAGUUCUACAGUCCGACGAUC … UGGAAUUCUCGGGUGUCAAGG
AAGUCCUGUGCUACACAUCGUAUGUACCGAAUCGGGGAAAAGGGGAAAAGGAAAAGGAAAGUAUUAUGUUACGCCGUUCGGAUCUGCACU: 0.102
UCAAGUCCUGUGCUACACAUCGUAUGUACCGAAUCGGUUUGGUUUGGGUUUGGGAAAGUAUUAUGUUACGCCGUUCGGAUCUGCACUUCC: -2.14
AGUCCUGUGCUACACAUCGUAUGUACCGAAUCGGGUUUUUGGGGUUUUUGGUUUUUGGAAAGUAUUAUGUUACGCCGUUCGGAUCUGCAC: -1.44
UCAAGUCCUGUGCUACACAUCGUAUGUACCGAAUCGGGUUUGGGUGGGAAAGGGAAAGUAUUAUGUUACGCCGUUCGGAUCUGCACUUCC: -1.87
CUGUGCUACACAUCGUAUGUACCGAAUCGGGAAAAAAAGGGGAAAAAAAGGGGAAAAAAAGGAAAGUAUUAUGUUACGCCGUUCGGAUCU: 0.497
CAAGUCCUGUGCUACACAUCGUAUGUACCGAAUCGGGCCCGGCCCGGGGCCCGGGGAAAGUAUUAUGUUACGCCGUUCGGAUCUGCACUU: -2.66
GUGCUACACAUCGUAUGUACCGAAUCGGGGUUUUUUUGGGGUUUUUUUGGGGAAAAAAAGGGGAAAGUAUUAUGUUACGCCGUUCGGAUC: 0.443
CCUGUGCUACACAUCGUAUGUACCGAAUCGGGGAAAAAGGGGUUUGGGGUUUUUUUGGGGAAAGUAUUAUGUUACGCCGUUCGGAUCUGC: -0.851
GCAGGAAGUAAAAACAAAUGGAAAAGCUUCGGAUAGUGGCAGGGGUGGGGGUUGCUAAGGAAAGGGUGGGAUGGGAGUGGGUAAAGAGUU: 1.3
CAGUUUAAGAGGGGUUUCAUGCAAGGGCAUGUAAAUAGACAAGAAAAAGAAGAAAAAGAAGCAAUAUAUAAAGAACGUUGGCCAGAUUAU: 0.648
AGAAAGCCCAGGAGGAACCACCUGCCAAGCUGCUGGAUGACCUUUUCCGAAAGACCAAGGCAGCUCCCUGCAUCUAUUGGCUCCCACUGA: -0.177

Sample 3
Target: RNA binding protein fox-1 homolog 2, RRM domain, GST-SBP tag (RBFOX2, Homo sapiens, UniProt O43251-10, residues 100-194)
Method: RNA Bind-n-Seq
Form: RNA
Medium: in vitro
Tested at: 365 nM
Setting: natural RNA segment, single round, ends assumed
Relative to: no-protein control
Reading: higher = stronger binding
Quantity: RBNS enrichment (R)
All sequences stand within: GGGAGUUCUACAGUCCGACGAUC … UGGAAUUCUCGGGUGCCAA
Residues (chain): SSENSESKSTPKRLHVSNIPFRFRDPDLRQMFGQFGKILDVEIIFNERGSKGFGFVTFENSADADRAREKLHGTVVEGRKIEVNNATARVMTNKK
UGAUUGUGUCCAAUAUGGUGUCUCGCUUGUGUCCUUAUUGGUCCCUUACCCUUUCUGUGUCCAUUGCUGGCCAUGGUCACUGAACUUGAAAUCACAGCCCUGCCAUUGGA: 1.72
CCUCUCCUUUAAUUUAUUUCUUCAAUGCCUCGACCUGCCGCAGGGGUCCGGGAUUGGGAAUCCGCCCAUCUGGGGGCCUCUUCUGCUUUCUCGGGAAUUUUCAUCUAGGA: 0.867
UCUCUAGCUACCCACAAGGGAAGUGUAUAGCAUAAAAAGUCUAAGUAGCAUAUCCUGUCCUGAAAGUGUGUGUAGUUUUACUUGUUCAACAGAAUGUCCGACAGCAUCCU: 5.03
GGAUUUGGGUCCCGAGGUGCCCCCUGAGAACGUACUGGGGGCUCUGCUACGCGUCAAACGCCUGGAGAACCCCUCGCCCCAGGCGCCGGCACGCCGCCUCCUGCCUCCCU: 0.354
AGAGGCCAUGUUGGGGGGACAGCCAUUGAGUUUAUUCCUUUACCUCAUGUGACCCCAGCAACUUUGGUGAUACUGAGAGGCCAGCAGGCAGUAGAGUGGACACCUCGGCC: 0.434
AUCUGGUGCUGGGGGCAGCCGGUGCAGCCCCGGGGAGCCCUGGCCUGGUGACCUCGCCGCUCUUCUUGAAUCAUGCUGGGCUGCCCCUGCUCAGCACCCCGCCUGGUGUG: 0.258
ACCCAAAAGCAACUGUAACUCAGAAAUUAAGUUACUCAGAAAUUAAGUAGCUCAGAAAUUAAGAAAGAAUGGUAUAAUGAACCCCCAUAUACCCUUCCUUCUGGAUUCAC: 0.291
CCCCAAACUCAGAUCCAGGUAUGAUAGUUUAUGCCUAUAAUCCCAGCACCAGGGAAGCUAAGGUGGAAGGUUGUUUGAGUUUGGAACUGGGCUAGAGAGUGAGUUAUUGC: 0.738
GUAGAUCUCCAUGCUUUGCUCUCAAGGCUUGGAGAGGUAUGUGCCCCUCCUGGGUGCUCACCGCCUGCUACACAGGCAGGAAUGCGGUUGGGAGGCAGGUCGGGCUGCCA: 0.268
CUUCUGCUGCUCUGGUCUAUCCCUGAAAACAGAUGUCUUGAAACACUUUUCAUAUUCUUAAAAUAAUCUUCACUUCUGUUAAGAAGAACAUGUUGGUGGGUAAUUAUGCG: 0.401
GUGAAUAAGGAUCCUGUGGGCACUGCUGGGUCCACUCUGCAAAUGCCAAGACUAUCAAAGGAACGUAUUGUCGCUUCUGGCUCCUUCCCAGGUGGGCUAGCAUCUGUGAG: 0.351
CGAGAUGAAGUUCUUUAAGUGAUGUAAGCACCCUCACCCUUACUCAAAACUUCCCACCCGACUAAAUUACCAGCAGAUAAACACUCUUCUGUGUGAGUAAACCGAGAGUU: 0.807

Sample 4
Target: Histone acetyltransferase KAT6A, winged helix 1, GST fusion (KAT6A, Homo sapiens, UniProt Q92794, residues 1-85)
Method: protein binding microarray
Form: double-stranded DNA, one strand shown
Medium: in vitro
Tested at: not given
Setting: 8-mer, flanks averaged, mean of 2 arrays, mostly near background
Relative to: not given
Reading: higher = stronger binding
Quantity: E-score
Residues (chain): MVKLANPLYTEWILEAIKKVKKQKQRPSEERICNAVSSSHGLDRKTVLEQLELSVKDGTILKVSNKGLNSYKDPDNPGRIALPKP
CCACCCGG: 0.196
ATCACAAG: -0.109
ACGGTAGT: 0.131
GCAGTACC: -0.0402
CATATCTA: -0.0375
AATCTGCT: -0.149
CGGTCCAC: 0.0673
CGCGGCCG: 0.485
CACTGGAG: -0.168
AATTTACG: 0.0143
ATCTTTTG: -0.0781
CCGTCTTC: 0.177
GACCCCTC: -0.152
GCCCCCAA: -0.191
ATCTAAAC: -0.0822
CTTTTGCA: -0.112
CTTAGGAC: -0.0799
CGACTTTC: 0.026
AAATATTC: -0.227
TATAGAAA: -0.162
CTTTCGCC: 0.128
CGGGTCGA: 0.0828
ACGACTCA: -0.271
CACCTATA: -0.117
AGGGTCAC: -0.0965
